Measurements collected from several papers.
Lines come from different studies, so protocols differ. Numbers after ± are the reported error.

| Structure (SMILES) | cell line | assay | conditions | IC50 [µM] |
| --- | --- | --- | --- | --- |
| C1N2CN3CN1CP(C2)C3.CC(C)OC(=O)C(n1cccn1)n1cccn1.F[P-](F)(F)(F)(F)F.[Cu+] | LoVo OXP, oxaliplatin-resistant | MTT | 72 h | 21.8 ± 3.4 |
| Cc1cc(O)cc(-c2nc(Nc3cc(C(F)(F)F)cc(C(F)(F)F)c3)ncc2-c2ccnc(Cl)c2)c1 | HCT-116 |  | 72 h | 9.4 ± 1.2 |
| CCC(C)C1OC(=O)C(NC(=O)c2cccc(NC=O)c2O)C(C)OC(=O)C(C(C)CC)OC(=O)C(C)(C)C(O)C(Cc2ccccc2)OC1=O (stereo not shown) | HCT-8 | cell growth or viability, CCK-8 | 72 h | 0.0118 |
| C[C@H]1[C@H](OC(=O)CCC(=O)OCCc2ccc(OC(=O)CCC(=O)O[C@@H]3O[C@@H]4O[C@@]5(C)CC[C@H]6[C@H](C)CC[C@@H]([C@H]3C)[C@@]46OO5)cc2)O[C@@H]2O[C@@]3(C)CC[C@H]4[C@H](C)CC[C@@H]1[C@@]24OO3 | SK-MEL-24 | cell growth or viability, MTT | 24 h | 0.24 |
| NC(=NN=Cc1cccs1)[S][Ru+]([Cl])([P](c1ccccc1)(c1ccccc1)c1ccccc1)[P](c1ccccc1)(c1ccccc1)c1ccccc1.[Cl-] | MCF-12A | cell growth or viability, resazurin | 96 h | 37.1 |
| N[C@H](CC[As](O)O)C(=O)O | MCF-12A | cell growth or viability |  | 75 |
| Cc1cc(C)c(N2CCN(c3c(C)cc(C)cc3C)C2=[Se])c(C)c1.[Cl][Au] | H157 lung carcinoma cells | cell viability, MTT | 72 h | 0.6 ± 0.1 |
| C[C@H]1C(OCCCCCCCC[P+](c2ccccc2)(c2ccccc2)c2ccccc2)O[C@@H]2O[C@@]3(C)CCC4[C@H](C)CCC1[C@]42OO3 (stereo partly shown) | T24 | cell growth or viability, MTT | 72 h | 0.0569 |
| [CH3][Ti+2][O]C(=O)c1ccc([S][Au][PH](c2ccccc2)(c2ccccc2)[c-]2cccc2)cc1.[Fe+2].c1cc[cH-]c1.c1cc[cH-]c1.c1cc[cH-]c1 | renal proximal tubule cells | cytotoxicity, XTT | 72 h | 3.76 ± 0.21 |
| CC1=CC(C)=[N+]2C1=Cc1ccc(CCC(=O)NCC3C[NH][Pt]([Cl])([Cl])[NH]3)n1[B-]2(F)F (stereo not shown) | KB-3-1 single cells in 3D Matrigel | cytotoxicity, CellTiter-Glo | 1 days, pre-grown 1 day | 53.8 ± 7.1 |
| CC(C)C[C@H](NC(=O)[C@H](CCCCN)NC(=O)[C@H](CC(C)C)NC(=O)[C@H](CC(C)C)NC(=O)[C@H](CCCCN)NC(=O)[C@H](CCCCN)NC(=O)[C@H](CC(C)C)NC(=O)[C@H](CC(C)C)NC(=O)[C@H](CCCCN)NC(=O)[C@H](CC(C)C)NC(=O)[C@H](CC(C)C)NC(=O)[C@H](CCCCN)NC(=O)[C@H](CCCCN)NC(=O)[C@@H](N)CC(C)C)C(N)=O | 4T1 | cell growth or viability, MTT | pH 6 | 12.1 |
| OC[C@H]1[C@@H](O)[C@@H](O)CN1Cc1ccccc1 | K562-Tax | cell growth or viability, MTS | 72 h | 107 |
| CCOC(=O)[C@H]1Cc2c(cc([N+](=O)[O-])cc2[N+](=O)[O-])[C@@H](O)[C@@]12C(=O)Nc1ccccc12 | U-251 | cell growth or viability, MTT | 24 h | 43.6 |
| C[C@H]1[C@H](OC(=O)CCC(=O)OCCc2ccc(O)cc2)O[C@@H]2O[C@@]3(C)CC[C@H]4[C@H](C)CC[C@@H]1[C@@]24OO3 | SK-MEL3 | cell viability, MTT | 24 h, without deferoxamine | 2.66 ± 0.9 |
| CCN1CCC(CN2c3ccccc3Sc3ccccc32)C1 (stereo not shown) | Vero 76 | cytotoxicity |  | 29.5 ± 8.7 |
| CC[C@H]1OC(=O)[C@H](C(C)C)NC(=O)[C@H](C)OC(=O)[C@@H](C(C)C)NC(=O)[C@@H](C(C)C)OC(=O)[C@H](C(C)C)NC(=O)[C@H](C)OC(=O)[C@@H](C(C)C)NC(=O)[C@@H](C(C)C)OC(=O)[C@H](C(C)C)NC(=O)[C@H](C)OC(=O)[C@@H](C(C)C)NC1=O | U-251 | cell growth or viability, SRB | 72 h | 0.4 |
| C[C@H]1O[C@@H](O[C@H]2CC[C@@]3(C)[C@H](CC[C@@H]4[C@@H]3CC[C@]3(C)[C@@H](C5=CC(=O)OC5)[C@@H](O)C[C@]43O)C2)C[C@H](O)[C@@H]1O[C@@H]1O[C@H](CO)[C@@H](O)[C@H](O)[C@H]1O | BEAS-2B | cell growth or viability, MTT | 48 h | 1.16 |
| O=C(CCCN1CCC2(CC1)C(=O)NCN2c1ccccc1)N(Cc1ccsc1)c1ccccc1 | MIA PaCa-2 | cell growth or viability, CCK-8 | 72 h | 17 |
| CCOC(=O)[C@@H]1Cc2c(cc([N+](=O)[O-])cc2[N+](=O)[O-])[C@@H](O)[C@@]12C(=O)Nc1ccc(Br)cc12 | U-251 | cell growth or viability, MTT | 24 h | > 50 |

| Structure (SMILES) | cell line | assay | conditions | IC50 [µM] |
| --- | --- | --- | --- | --- |
| CCN(CC)C1=[S+][Au-]2([S]1)[c]1ccccc1-c1cccc[c]12 | UWB1289 | cell growth or viability, MTT | 72 h | 31.6 |
| C[C@H]1C(OCCCCCC[P+](c2ccccc2)(c2ccccc2)c2ccccc2)O[C@@H]2O[C@@]3(C)CCC4[C@H](C)CCC1[C@]42OO3 (stereo partly shown) | T24 | cell growth or viability, MTT | 72 h | 0.156 |
| CC(C)C[C@@H](N)C(=O)NCC(=O)N[C@H](C)C(=O)N[C@H](CO)C(=O)N[C@H](Cc1c[nH]c2ccccc12)C(=O)N[C@H](Cc1c[nH]cn1)C(=O)N[C@H](CCCNC(=N)N)C(=O)N1CCC[C@@H]1C(=O)N[C@H](CC(=O)O)C(=O)N[C@H](CCCCN)C(=O)NCCCC[C@@H](NC(=O)[C@H]1CCCN1C(=O)[C@@H](CC(C)C)NC(=O)[C@H]1CCCN1C(=O)[C@@H](CCCNC(=N)N)NC(=O)[C@@H](CCCCN)NC(=O)[C@@H](CCC(N)=O)NC(=O)[C@@H](Cc1ccc(O)cc1)NC(=O)CNC(=O)[C@@H](CC(C)C)NC(=O)[C@@H](CS)NC(=O)[C@@H](CS)NC(=O)[C@@H](CCCCN)NC(=O)[C@@H](CC(=O)O)NC(=O)[C@H]1CCCN1C(=O)[C@@H](CCCNC(=N)N)NC(=O)[C@@H](Cc1c[nH]cn1)NC(=O)[C@@H](Cc1c[nH]c2ccccc12)NC(=O)[C@@H](CO)NC(=O)[C@@H](C)NC(=O)CNC(=O)[C@H](N)CC(C)C)C(N)=O | SUP-T1 | cell migration |  | 0.5 |
| Cc1ccc(C(C)C)cc1.[Cl][Ru+].[O-]c1ccccc1C=NCCNc1ccnc2cc(Cl)ccc12 | CHO | cytotoxicity, MTT |  | 89 ± 19 |
| CO[C@@H]1[C@@H](O)[C@H](O[C@H]2CC[C@@]3(C)[C@H](CC[C@@H]4[C@@H]3CC[C@]3(C)[C@@H](C5=CC(=O)OC5)[C@@H](O)C[C@]43O)C2)O[C@H](C)[C@@H]1O[C@@H]1O[C@H](CO)[C@@H](O)[C@H](O)[C@H]1O | BEAS-2B | cell growth or viability, MTT | 48 h | 1.47 |
| N=C(N)NCCC[C@H](NC(=O)[C@H](CCCNC(=N)N)NC(=O)[C@@H]1CCCN1C(=O)[C@H](CCCNC(=N)N)NC(=O)[C@H](CCCNC(=N)N)NC(=O)[C@H](CCCNC(=N)N)NC(=O)[C@H](Cc1c[nH]c2ccccc12)NC(=O)[C@H](CCCNC(=N)N)NC(=O)[C@H](CCCNC(=N)N)NC(=O)[C@H](CCCNC(=N)N)NC(=O)[C@H](CCCNC(=N)N)NC(=O)[C@H](CCCNC(=N)N)NC(=O)[C@H](Cc1c[nH]c2ccccc12)NC(=O)[C@H](CCCNC(=N)N)NC(=O)[C@H](CCCNC(=N)N)NC(=O)[C@H](Cc1ccc(O)cc1)NC(=O)[C@H](CCCNC(=N)N)NC(=O)[C@H](CCCNC(=N)N)NC(=O)[C@H](CCCNC(=N)N)NC(=O)[C@@H](N)Cc1c[nH]c2ccccc12)C(N)=O | Hs68 | cell viability, CellTiter-Blue | 24 h, serum-free medium | 10.8 ± 0.3 |
| CC[C@@]1(O)C(=O)OCc2c1cc1n(c2=O)Cc2c-1nc1cc(F)c(C)c3c1c2[C@@H](NC(=O)CCCN)CC3 | MDA-MB-468 | cell growth or viability, ATP luminescence | 5 days | 0.0097 |
| CCOC(=O)[C@@H]1Cc2c(cc([N+](=O)[O-])cc2[N+](=O)[O-])[C@@H](O)[C@@]12C(=O)Nc1ccc(Cl)cc12 (single isomer, unassigned) | U-87 MG | cell growth or viability, MTT | 24 h | 41.6 |
| Cc1cc(C)c(-n2ccn(-c3c(C)cc(C)cc3C)c2=[Se])c(C)c1.[Cl][Ag] | HCT-15 | cell growth or viability, MTT | 72 h | 4 |
| N.N.O=C([O][Pt]([OH])([Cl])[Cl])c1ccc(P(c2ccccc2)c2ccccc2)cc1.[Cl][Au] | T24 | cell growth or viability, resazurin | 72 h | 12.6 |
| CC(=O)N[C@@H](Cc1c[nH]c2ccccc12)C(=O)N[C@@H](C)C(=O)N1CCC[C@H]1C(=O)N1CCC[C@H]1C(=O)N[C@@H](CC(C)C)C(=O)N[C@@H](Cc1c[nH]cn1)C(=O)N[C@@H](CO)C(=O)N[C@H](C(=O)N[C@@H](C)C(N)=O)[C@@H](C)OP(=O)(O)O | U-266 | cell growth or viability, MTT | 72 h | 0.72 |
| COc1cc(C=CC(=O)CC(=O)C=Cc2ccc(OC(=O)CCC(=O)OC3OC4OC5(C)CCC6C(C)CCC(C3C)C46OO5)c(OC)c2)ccc1OC(=O)CCC(=O)OC1OC2OC3(C)CCC4C(C)CCC(C1C)C24OO3 (stereo not shown) | SK-MEL-24 | cell viability, MTT | 24 h, together with: deferoxamine 20 µM, 1 h before | 3.3 ± 0.8 |
| CCC(C)C1OC(=O)C(NC(=O)c2cccc(NC=O)c2O)C(C)OC(=O)C(C(C)CC)OC(=O)C(C)(C)C(=O)C(Cc2ccccc2)OC1=O (stereo not shown) | HCT-8 | cell growth or viability, CCK-8 | 72 h | 0.0303 |
| Cc1cc(C)c(S(=O)(=O)N2CC2C(N)=O)c(C)c1 (stereo not shown) | HT-1080 | cell growth or viability, MTT | 48 h | 170 |
| C1=C[N]2c3c4c(ccc3=C1)=CC=C[N]4[Ru+2]213([N]2C=CC=c4ccc5c(c42)[N]1C=CC=5)[N]1C=CC=c2c1c1c(c4nc5c6cccnc6c6ncccc6c5nc24)=CC=C[N]13 | H226 | cell viability, MTT | 96 h | 49.2 ± 3.1 |
| CC(C)C[C@H](NC(=O)[C@H](CCCCN)NC(=O)[C@H](CC(C)C)NC(=O)[C@H](CC(C)C)NC(=O)[C@H](CCCCN)NC(=O)[C@H](CCCCN)NC(=O)[C@H](CC(C)C)NC(=O)[C@H](CC(C)C)NC(=O)[C@H](CCCCN)NC(=O)[C@H](CC(C)C)NC(=O)[C@H](CC(C)C)NC(=O)[C@H](CCCCN)NC(=O)[C@H](CCCCN)NC(=O)[C@H](CC(C)C)NC(=O)[C@@H](N)CSSC[C@H](N)C(=O)N[C@@H](CC(C)C)C(=O)N[C@@H](CCC(=O)O)C(=O)N[C@@H](CCC(=O)O)C(=O)N[C@@H](CC(C)C)C(=O)N[C@@H](CC(C)C)C(=O)N[C@@H](Cc1c[nH]cn1)C(=O)N[C@@H](Cc1c[nH]cn1)C(=O)N[C@@H](CC(C)C)C(=O)N[C@@H](CCC(=O)O)C(=O)N[C@@H](CCC(=O)O)C(=O)N[C@@H](CC(C)C)C(=O)N[C@@H](CC(C)C)C(=O)N[C@@H](Cc1c[nH]cn1)C(=O)N[C@@H](Cc1c[nH]cn1)C(N)=O)C(N)=O | 4T1 | cell growth or viability, MTT | pH 6 | 15.3 |
| Cc1cc(Nc2nc(C[C@@]3(C(=O)O)CCN(Cc4cccc(Cl)c4F)[C@H](C)C3)cc(C)c2F)[nH]n1 | NCI-H1975 | cell growth or viability, ATP luminescence | 5 days | 0.0544 |
| N#Cc1ccc(NC(=O)c2cccnc2)cc1Cl | MRC5 lung fibroblasts | cytotoxicity, LDH release |  | > 30 |

Some of these lines once more:
| Structure (SMILES) | cell line | assay | conditions | IC50 [µM] |
| --- | --- | --- | --- | --- |
| N=C(N)NCCC[C@H](NC(=O)[C@H](CCCNC(=N)N)NC(=O)[C@@H]1CCCN1C(=O)[C@H](CCCNC(=N)N)NC(=O)[C@H](CCCNC(=N)N)NC(=O)[C@H](CCCNC(=N)N)NC(=O)[C@H](Cc1c[nH]c2ccccc12)NC(=O)[C@H](CCCNC(=N)N)NC(=O)[C@H](CCCNC(=N)N)NC(=O)[C@H](CCCNC(=N)N)NC(=O)[C@H](CCCNC(=N)N)NC(=O)[C@H](CCCNC(=N)N)NC(=O)[C@H](Cc1c[nH]c2ccccc12)NC(=O)[C@H](CCCNC(=N)N)NC(=O)[C@H](CCCNC(=N)N)NC(=O)[C@H](Cc1ccc(O)cc1)NC(=O)[C@H](CCCNC(=N)N)NC(=O)[C@H](CCCNC(=N)N)NC(=O)[C@H](CCCNC(=N)N)NC(=O)[C@@H](N)Cc1c[nH]c2ccccc12)C(N)=O | Hs68 | cell viability, CellTiter-Blue | 24 h, serum-free medium | 10.8 ± 0.3 |
| CC[C@@]1(O)C(=O)OCc2c1cc1n(c2=O)Cc2c-1nc1cc(F)c(C)c3c1c2[C@@H](NC(=O)CCCN)CC3 | MDA-MB-468 | cell growth or viability, ATP luminescence | 5 days | 0.0097 |
| CCOC(=O)[C@@H]1Cc2c(cc([N+](=O)[O-])cc2[N+](=O)[O-])[C@@H](O)[C@@]12C(=O)Nc1ccc(Cl)cc12 (single isomer, unassigned) | U-87 MG | cell growth or viability, MTT | 24 h | 41.6 |
